Experimental data from different studies.
Each line is one published result; not all experiments were run side by side. ± marks the error that the study gave.

Structure (SMILES) | assay | test system | conditions | how to read | AUC(0-inf)
CO[C@H]1C[C@@H]2CC[C@@H](C)[C@@](O)(O2)C(=O)C(=O)N2CCCC[C@H]2C(=O)O[C@H]([C@H](C)C[C@@H]2CC[C@@H](OCCO)[C@H](OC)C2)CC(=O)[C@H](C)/C=C(\C)[C@@H](O)[C@@H](OC)C(=O)[C@H](C)C[C@H](C)/C=C/C=C/C=C/1C |  | human patients, plasma | oral, 5 mg single dose, with: vorolanib 100 mg |  | 307 ± 168 ng·h/mL
CN(C)N=Nc1[nH]cnc1C(N)=O |  | human patients, plasma | intravenous, 1000 mg/m^2 over 1 h, cycle 1 day 1, given alone |  | 110000 ng·h/mL
Cl.O=C(NC1CCOCC1)c1csc([C@@H]2C[C@H]2NCC2CC2)c1 |  | human, fed, plasma | oral, 30 mg single dose |  | 638 ng·h/mL
CNC(=O)c1ccc(-c2cnc3ncc(Cc4ccc5ncccc5c4)n3n2)cc1F |  | human, mild NCI classification, plasma | oral, 200 mg, adjusted geometric mean |  | 6640 ng·h/mL
CCn1cc(C(=O)N2CCOCC2)c(=O)c2cc(NC3Cc4ccccc4C3)cnc21 |  | human, fasted | oral suspension, 2000 mg single dose, arithmetic mean |  | 5750 ng·h/mL
N[C@@H](CC(=O)N1CCn2c(nnc2C(F)(F)F)C1)Cc1cc(F)c(F)cc1F |  | male human, plasma | oral, 100 mg single dose |  | 3480 ± 635 ng·h/mL
Cn1c(=O)oc2ccc(-c3ccc(C[C@@H](C#N)NC(=O)[C@@H]4CNCCCO4)cc3)cc21 |  | human, normal renal function, plasma | oral, 25 mg single dose, mean |  | 3510 ng·h/mL
COC(=O)N[C@@H](C)CNc1nccc(-c2cn(C(C)C)nc2-c2cc(Cl)cc(NS(C)(=O)=O)c2F)n1 |  | human, plasma | oral, 50 mg, with: posaconazole 400 mg twice daily | geometric mean | 5810 ng·h/mL
FC(F)(F)c1ccc(CNc2ccc(Cc3c[nH]c4ncc(Cl)cc34)cn2)cn1 |  | human, plasma | oral, dose not given, with: itraconazole |  | 135000 ng·h/mL
C[C@@H](Oc1ccc(S(C)(=O)=O)cc1C(=O)N1C[C@@H]2C[C@]2(c2cc(C(F)(F)F)on2)C1)C(F)(F)F |  | healthy human volunteers, fasted, plasma | oral, 10 mg single, adjusted geometric mean |  | 3.91 µM·h
CCNCCCNC/C=C\CNCCCNCC | LC-MS/MS | human cancer patients, plasma | intravenous infusion 60 min, 150 mg, median, cycle 1 |  | 474 ng·h/mL
C[C@@H](Cn1ccc(-c2ccc(C#N)c(Cl)c2)n1)NC(=O)c1cc([C@@H](C)O)[nH]n1 |  | human, fasted, plasma | oral tablet, 300 mg, geometric mean |  | 2420 ng·h/mL
CCN1CCN(Cc2ccc(Nc3ncc(F)c(-c4cc(F)c5nc(C)n(C(C)C)c5c4)n3)nc2)CC1 |  | fasted healthy human subjects, plasma | oral, 150 mg, tablet |  | 3110 ng·h/mL
Cn1cncc1[C@@](N)(c1ccc(Cl)cc1)c1ccc2c(c1)c(-c1cccc(Cl)c1)cc(=O)n2C |  | human, with dose-limiting toxicity, plasma | oral, dose not given, range |  | 1730 to 22700 ng·h/mL
Nc1c2c(cc3c1CCC3)CCC2 |  | human, plasma | oral, 150 mg of GDC-2394, single ascending dose |  | 153 ng·h/mL
CC(C)[C@@H]1CC[C@@H](C)C[C@H]1OC(=O)O[C@@H](C)OC(=O)[C@H]1[C@@H]2C[C@H](F)[C@@](N)(C(=O)O)[C@@H]21 |  | human, plasma | oral, 10 mg single dose, fasted |  | 24.7 ng·h/mL
CNC(=O)c1c(C)oc2cc(Oc3ncnc4cc(OC)c(OC)cc34)ccc12 |  | human, normal hepatic function (Child-Pugh), plasma | oral, 5 mg, single dose |  | 5710 ng·h/mL
Cn1cncc1[C@@](N)(c1ccc(Cl)cc1)c1ccc2c(c1)c(-c1cccc(Cl)c1)cc(=O)n2C |  | healthy human subjects, plasma | oral, 100 mg, fed (high-fat meal) |  | 1240 ng·h/mL
C[C@H](Oc1ccc(Br)cc1-c1ccon1)C(=O)O |  | healthy male humans, plasma | oral, 200 mg once daily, day 1 |  | 46500 ng·h/mL

Structure (SMILES) | assay | test system | conditions | how to read | AUC(0-inf)
Cc1cc(C)c(CNC(=O)c2cc(Cl)c3c(c2C)O[C@@](C)([C@H]2CC[C@H](N(C)C)CC2)O3)c(=O)[nH]1 | geometric LS mean | healthy male humans, plasma | oral, 25 mg, alone, fluconazole DDI study reference |  | 610 ng·h/mL
NC(CO)(CO)CCc1ccc(Sc2cccc(OCc3ccccc3)c2)cc1Cl |  | human, whole blood | oral, 3 mg, given alone |  | 145 ng·h/mL
CC(C)c1nc(N(C)S(C)(=O)=O)nc(-c2ccc(F)cc2)c1/C=C/[C@@H](O)C[C@@H](O)CC(=O)O |  | human, plasma | oral, 20 mg, day 2, geometric mean, alone |  | 48.6 ng·h/mL
CN[C@@H](C)C(=O)N[C@H]1CN(S(=O)(=O)c2cccc(S(=O)(=O)N3CC[C@H]4CC[C@@H](C(=O)NC(c5ccccc5)c5ccccc5)N4C(=O)[C@@H](NC(=O)[C@H](C)NC)C3)c2)CC[C@H]2CC[C@@H](C(=O)NC(c3ccccc3)c3ccccc3)N2C1=O | LC-MS/MS, noncompartmental | human, plasma | 20 mg, cycle 1 day 1 |  | 168 ng·h/mL
C=CC(=O)NC1CCN(c2ncc3ncnc(Nc4ccc(Oc5ccc6c(c5)ncn6C)c(C)c4)c3n2)CC1 |  | human, male, plasma | oral, 240 mg, fasted, adjusted geometric mean |  | 47.6 µM·h
Nc1ccn([C@@H]2O[C@H](CO)[C@@H](O)C2(F)F)c(=O)n1 |  | human, plasma | dose not given, mean, before paricalcitol |  | 17500 ng·h/mL
C=CC(=O)N(C)CCOc1c(N)ncnc1-c1cc(F)cc(NC(=O)c2ccc(C3CC3)cc2F)c1C |  | human, whole blood | oral, 60 mg, single ascending dose |  | 245 ng·h/mL
O=C(O)CCC(=O)O.[2H]C([2H])([2H])Oc1cc(C)c2[nH]ccc2c1CN1CC[C@@H](C2CC2)C[C@H]1c1ccc(C(=O)O)cc1 | LC-MS/MS, geometric mean | human, plasma | 100 mg, single dose, fasting |  | 57900 ng·h/mL
CN1C(=O)[C@@H](NC(=O)c2nnc(Cc3ccccc3)[nH]2)COc2cccnc21 |  | healthy human, fasted, plasma | oral, 400 mg single dose, geometric mean |  | 57500 ng·h/mL
NC[C@@]1(CC(=O)O)[C@@H]2CC[C@H]3C[C@@H]2[C@@H]1C3 |  | human, moderately renal impairment, plasma | dose not given, geometric least squares mean |  | 3920 ng·h/mL
N#C[C@H](C[C@@H]1CCCNC1=O)NC(=O)[C@H](CC1CC1)NC(=O)c1cc2cccc(Cl)c2[nH]1 |  | human | oral, 150 mg once daily, day 1 |  | 3090 ng·h/mL
N[C@@H]1c2cccnc2[C@H](OC(=O)N2CCC(n3c(=O)[nH]c4ncccc43)CC2)CC[C@H]1c1cccc(F)c1F |  | human, plasma | oral, 75 mg single dose, alone, arithmetic mean, rifampin DDI study |  | 5230 ng·h/mL
Nc1ncn([C@@H]2O[C@H](CO)[C@@H](O)[C@H]2O)c(=O)n1 |  | human | 100 mg/m^2, cycle 1 day 1, given alone |  | 911 ng·h/mL
CN(CC#N)C(=O)C[C@H](Nc1nc2ccccc2[nH]1)c1cccc(C(F)(F)F)c1 |  | human | intravenous infusion, 5 mg/kg, 1 mg/mL formulation |  | 20900 ± 4310 ng·h/mL
C[C@H]1CN(C(=O)CC#N)[C@]12CCN(c1ncnc3[nH]ccc13)C2 |  | healthy human, plasma | oral, 3 mg single, mean |  | 70.2 ng·h/mL
CC(=O)O[C@H]1C(=O)[C@@]2(C)[C@H]([C@H](OC(=O)c3ccccc3)[C@]3(O)C[C@H](OC(=O)[C@H](O)[C@@H](NC(=O)c4ccccc4)c4ccccc4)C(C)=C1C3(C)C)[C@]1(OC(C)=O)CO[C@@H]1C[C@@H]2O | noncompartmental analysis | human cancer patients, plasma | intravenous infusion, 60 mg/m^2, cycle 1 day 1, with: daily oral co-medication |  | 3000 ng·h/mL
C[C@@H](Oc1ccc(S(C)(=O)=O)cc1C(=O)N1C[C@@H]2C[C@]2(c2cc(C(F)(F)F)on2)C1)C(F)(F)F |  | healthy young humans, plasma | oral, 25 mg single dose |  | 12.7 µM·h
CN(C)C(=O)c1cc2cnc(Nc3ccc(N4CCNCC4)cn3)nc2n1C1CCCC1 |  | human, severe renal impairment, plasma | oral, 400 mg, single dose, adjusted geometric mean |  | 10900 ng·h/mL

Some of these lines once more:
Structure (SMILES) | assay | test system | conditions | how to read | AUC(0-inf)
CCn1cc(C(=O)N2CCOCC2)c(=O)c2cc(NC3Cc4ccccc4C3)cnc21 |  | human, fasted | oral suspension, 2000 mg single dose, arithmetic mean |  | 5750 ng·h/mL
N[C@@H](CC(=O)N1CCn2c(nnc2C(F)(F)F)C1)Cc1cc(F)c(F)cc1F |  | male human, plasma | oral, 100 mg single dose |  | 3480 ± 635 ng·h/mL
Cn1c(=O)oc2ccc(-c3ccc(C[C@@H](C#N)NC(=O)[C@@H]4CNCCCO4)cc3)cc21 |  | human, normal renal function, plasma | oral, 25 mg single dose, mean |  | 3510 ng·h/mL
